Measured values from different studies.

Structure (SMILES)	assay	system	conditions	measurement	result
COc1ncnn2ccc(-c3cnc4nc(C)n(Cc5nnc([C@@H](C)F)o5)c4c3)c12		human	oral, dose not given, grade 3	patients with tumour lysis syndrome	14.3%
CCS(=O)(=O)Nc1ccc(Oc2ccc(F)cc2F)c(-c2cn(C)c(=O)c3[nH]ccc23)c1	item: Acidosis	human, relapsed/refractory AML	oral, dose not given, trial, together with: alone or with venetoclax	patients with fatal adverse event	0%
C=CC(=O)Nc1cc(Nc2nccc(Nc3cc(Cl)c(F)cc3C(C)(C)O)n2)c(OC)cc1N1CC[C@@H](N(C)C)C1		human patients	oral, 50 mg, treatment-emergent adverse events	patients with hypokalaemia	0%
NC(=O)[C@H]1CCN(c2ncnc(N)c2F)C[C@@H]1N1CCC[C@@H](Nc2cc(Cl)cc(C(F)(F)F)c2)C1=O		human patients	oral, dose not given, grade ≥3	patients with decreased platelets	8%
C[C@@H]1OC(=O)NN=C1c1ccc(-c2ccc(F)cc2)c(C(F)(F)F)c1	phase I trial, item: Cough worst grade 1	human patients	10 mg loading then 0.5 mg daily	patients with adverse event	0%
O=C(c1ccc(F)c(F)c1Nc1ccc(I)cc1F)N1CC(O)([C@@H]2CCCCN2)C1		human patients	oral, 1 mg/kg, patients aged at least sample B years	patients with treatment-related SAE	100%
Cc1cn([C@H]2O[C@@H](CO[P@@](=O)(N[C@@H](C)C(=O)OC(C)C)Oc3ccccc3)[C@H](O)[C@H]2F)c(=O)[nH]c1=O	item: bone pain	human	50 mg	patients with TEAE	0%
Cn1ncc(-c2nc(N[C@H]3CC[C@H](N)CC3)ncc2Cl)c1CC1CC1	item: treatment-related Stomatitis grade 3 or higher	human patients phase I	dose not given	patients with adverse events	3.2%
CCN(CCO)CCCC(C)Nc1ccnc2cc(Cl)ccc12 (centres unmarked)		human, newly diagnosed glioblastoma	oral, 400 mg/dose, muscle weakness grade 3, with RT and TMZ	patients with adverse event	14%
COc1ccc(-c2c(-c3ccc(C#N)c(F)c3)nc(N3CCC(N)CC3)n(C)c2=O)cc1F	item: general health deterioration	human patients	oral, dose not given, dose escalation	patients with serious TEAE	4%
CCN1[C@@H](C(=O)NC23CCC(C(=O)O)(CC2)CC3)[C@H](c2cccc(Cl)c2F)[C@]2(C(=O)Nc3cc(Cl)ccc32)C12CCCCC2	item: any-grade treatment-related elevated AST	human, advanced solid tumours	oral, dose not given, phase I, all patients	patients with adverse event	4.8%
O=C1Nc2cc3[nH]nc(-c4ccncc4)c3cc2CN1Cc1ccccc1	CTCAE v4.03	human, relapsed or refractory advanced solid tumours	intravenous, 9.6 mg/kg, pooled schedules	patients with rash	22%
Cn1cncc1-c1c(F)cncc1NC(=O)c1c(N)nn2cc(F)cnc12		human patients	oral, 220 mg once daily, 2 weeks on 1 week off	patients grade ≥3 creatinine increase	17%
C[C@]1(O)C[C@@](N)(c2ccc(-c3nc4n(c3-c3ccccc3)COc3ccncc3-4)cc2)C1		human, advanced or metastatic solid tumours	24 mg intermittent, phase I dose escalation	patients with Nausea TEAE	0%
